Measurements gathered from unrelated publications.
Numbered parts are unrelated; each lists some results of a single study.

Study 1
Target: Sal-like protein 4, full length isoform B (SALL4, Homo sapiens, UniProt Q9UJQ4-2, residues 1-616)
Technique: universal PBM
Molecule type: double-stranded DNA, one strand shown
Medium: in vitro
Tested at: not given
Notes: 8-mer, flanks averaged, mean of replicates
Direction: higher = stronger binding
Measurement: E-score
ATGAGTAA: 0.206
AGAATCCA: 0.0125
GAACTGGA: -0.0321
AGGCTCCA: -0.19
TAATCAGA: 0.24
CACAACCA: -0.0307
GATAATGC: 0.0947
GCTTCGTA: -0.00105
AGATGTCA: 0.0384
CGCTTTTA: 0.157
ATAGGATG: 0.191
CTGTACAG: 0.192
GAGTCTGA: -0.246
AGGTTTGA: -0.0497
ACGAAACG: -0.0406
ATAAACGC: 0.221
CGATGTGC: -0.199
ACGGCGCA: -0.235
CTGGATCC: -0.0828
CGCGACCC: -0.272

Study 2
Target: Runt-related transcription factor 1, full length (RUNX1, Homo sapiens, UniProt Q01196-8, residues 1-480)
Technique: protein-binding microarray
Molecule type: hairpin DNA
Medium: in vitro
Tested at: not given
Notes: whole hairpin DNA, median over replicate spots
Reference: not given
Direction: higher = stronger binding
Measurement: median fluorescence
GAGGCCCAACGGCAACAGCCTCCTGGCTGTTGCCGTTGGGCCTCACACTC: 1690 a.u.
GAGGCCTGTCGCGGTTCGCCTCCTGGCGAACCGCGACAGGCCTCACACTC: 2300 a.u.
CTCAGTTCTGTGGGCTCGACTCCTGTCGAGCCCACAGAACTGAGACACTC (5mC at 17): 1930 a.u.
GAGGCCCACGCGCAACAGCCTCCTGGCTGTTGCGCGTGGGCCTCACACTC (5mC at 35): 1860 a.u.
GAGGCCTGTCGCGGGTGGCCTCCTGGCCACCCGCGACAGGCCTCACACTC (5mC at 30): 1970 a.u.
GAGGCCTGTCGCGGTTGGCCTCCTGGCCAACCGCGACAGGCCTCACACTC (5mC at 10 12 32): 1870 a.u.
GAGGCCTGTCGCGGATGGCCTCCTGGCCATCCGCGACAGGCCTCACACTC: 1790 a.u.
GAGGCCTGTTGCGCGTGGCCTCCTGGCCACGCGCAACAGGCCTCACACTC (5mC at 30): 1730 a.u.
GAGGCCTGTCGCCGTTGGCCTCCTGGCCAACGGCGACAGGCCTCACACTC: 1690 a.u.
GAGGCCTGTCGCGGTTCGCCTCCTGGCGAACCGCGACAGGCCTCACACTC (5mC at 17): 2240 a.u.
GAGGCCTCGCGCGGTTGGCCTCCTGGCCAACCGCGCGAGGCCTCACACTC (5mC at 8 36): 2320 a.u.
GAGGCCTGTTGCAGTTGGCCTCCTGGCCAACTGCAACAGGCCTCACACTC: 1640 a.u.
GAGGCCCAACCGGAACAGCCTCCTGGCTGTTCCGGTTGGGCCTCACACTC (5mC at 32): 1740 a.u.
GAGGCCTGTTGTGGTTTGCCTCCTGGCAAACCACAACAGGCCTCACACTC: 4970 a.u.
GAGGCCTGTCGCGGCGGGCCTCCTGGCCCGCCGCGACAGGCCTCACACTC (5mC at 15): 2060 a.u.
GAGGCCTGTCGCGGTTGGCCTCCTGGCCAACCGCGACAGGCCTCACACTC (5mC at 20): 2910 a.u.
CTCAGTTCTGTGCGCTGGACTCCTGTCCAGCGCACAGAACTGAGACACTC (5mC at 13 31): 1760 a.u.
CTCAGTTCTGTGGCGTGGACTCCTGTCCACGCCACAGAACTGAGACACTC (5mC at 14): 2060 a.u.
GAGGCCTGTTGCGGCGGGCCTCCTGGCCCGCCGCAACAGGCCTCACACTC: 2250 a.u.
GAGGCCCAACCGCAACAGCCTCCTGGCTGTTGCGGTTGGGCCTCACACTC (5mC at 11): 2090 a.u.
GAGGCCTGTCCGGGTTGGCCTCCTGGCCAACCCGGACAGGCCTCACACTC: 1790 a.u.
GAGGCCTGTTGTGGTCGGCCTCCTGGCCGACCACAACAGGCCTCACACTC (5mC at 28): 3270 a.u.
GAGGCCTGTCGCGGTTGGCCTCCTGGCCAACCGCGACAGGCCTCACACTC (5mC at 12 34): 2240 a.u.
GAGGCCCAACCGCGACAGCCTCCTGGCTGTCGCGGTTGGGCCTCACACTC: 2860 a.u.
GAGGCCTGTCGCGGTTGGCCTCCTGGCCAACCGCGACAGGCCTCACACTC (5mC at 27): 2700 a.u.

Study 3
Target: Interferon regulatory factor 3, full length, phosphomimetic (IRF3, Homo sapiens, UniProt Q14653, residues 1-427, S386D/S396D/S398D/S402D/T404D/S405D)
Technique: protein-binding microarray
Molecule type: double-stranded DNA, one strand shown
Medium: in vitro
Tested at: 2540 nM top
Notes: 60-bp whole probe
With: salmon DNA 0.4 mg/ml
Reference: random background probes
Direction: higher = stronger binding
Measurement: fitted relative affinity
Shared flanks, not repeated: GCCTAGCAC … GTCTTGATTCGCTTGACGCTGCTG
Target sequence (chain): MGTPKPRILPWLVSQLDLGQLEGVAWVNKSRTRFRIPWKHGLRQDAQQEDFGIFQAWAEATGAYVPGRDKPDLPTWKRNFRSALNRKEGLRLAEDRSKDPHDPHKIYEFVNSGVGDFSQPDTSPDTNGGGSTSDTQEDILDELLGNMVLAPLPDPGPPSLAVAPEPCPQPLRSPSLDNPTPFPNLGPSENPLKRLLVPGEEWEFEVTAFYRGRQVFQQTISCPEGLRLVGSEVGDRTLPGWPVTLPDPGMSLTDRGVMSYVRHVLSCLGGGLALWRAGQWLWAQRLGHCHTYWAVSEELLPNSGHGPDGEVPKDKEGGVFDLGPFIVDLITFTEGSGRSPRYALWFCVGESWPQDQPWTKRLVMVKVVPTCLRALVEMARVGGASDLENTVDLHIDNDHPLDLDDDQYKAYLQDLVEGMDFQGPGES
CTGAGGCTGTGTTTTCACTTTGTGCTA: -0.0115 z-score
TCGTAAGCAAAAATGATTGGGTGCTAG: -0.284 z-score
GACGATTCCGGGTTTCGAGACGTGCTA: 1.3 z-score
TCATGTGTGTGTATGTGACTGTGCTAG: -0.545 z-score
GACGAACTGAGTTTCGAGTCGTGCTAG: 1.67 z-score
TTAGGTGCCGGTTTCGGTTAGTGCTAG: 5.31 z-score
TCACAACTTTTTTTAATACTGTGCTAG: 0.43 z-score
TCAACTAGCGGGTCTTGCACTGTGCTA: -0.429 z-score
TTTGGACACAGACACAGGCCGTGCTAG: -0.223 z-score
GACGGTCTCCTTCTCTTGACGTGCTAG: 4.27 z-score
GACGATTTCGGGACCGGAGACGTGCTA: 1.76 z-score
TCACATTTATTTACTCTCACTGTGCTA: 0.969 z-score
TTAGGTCTCGTTCTCCTTTAGTGCTAG: 2.22 z-score
TTAGTTATCGACACTGGGTTAGTGCTA: -0.0293 z-score
GACGAACTAGGGTATCGAGACGTGCTA: -0.307 z-score
TTAGAACTGGGGGCTGGATTAGTGCTA: -0.377 z-score
GACGGACTGCTTCTCCTCACGTGCTAG: -0.434 z-score
GACGATTTCGGGTATCGCGACGTGCTA: 1.57 z-score
GACGACCTGAGTTTCGAGACGTGCTAG: 0.978 z-score
TTACGTCTCCTACTGCTTTAGTGCTAG: 0.787 z-score
TTAGATATCAGTATCTATTAGTGCTAG: 1.27 z-score
GACGAACTGAGAATCGAGACGTGCTAG: -0.0703 z-score
CACCGTCTTATTAAAAAACAGTGCTAG: 0.768 z-score

Study 4
Target: RNA binding protein fox-1 homolog 2, RRM domain, GST-SBP tag (RBFOX2, Homo sapiens, UniProt O43251-10, residues 100-194)
Technique: RNA Bind-n-Seq
Molecule type: RNA
Medium: in vitro
Tested at: 365 nM
Notes: natural RNA segment, single round, ends assumed
Reference: no-protein control
Direction: higher = stronger binding
Measurement: RBNS enrichment (R)
Construct (chain): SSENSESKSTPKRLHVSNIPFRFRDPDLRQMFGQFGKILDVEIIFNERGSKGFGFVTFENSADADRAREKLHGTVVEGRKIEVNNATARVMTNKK
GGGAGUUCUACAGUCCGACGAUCAUUUCCUGGGAAAUUUUGGUCAAAAGCCAGCUUCUUUUGCUGUCUUUAAUAAGAAAAACUUGAAGUUUAGGAGCUUAAAAGACUUAGCCUGAGGCAGAAGGAGGUGAGCAUGGAAUUCUCGGGUGCCAA: 2.97
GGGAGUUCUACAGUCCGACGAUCUUGAGCUCUGGGGAGAAAGGAUAUGAGGAGUCUACACUGACCUUCCACUUCUUUUUUCACCCAGUUGCCUUUAAACCAGACUCUAAACAGCCUAUCUCCAGGUAGAAAGGUGGAAUUCUCGGGUGCCAA: 0.248
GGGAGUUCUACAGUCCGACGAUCGGUAGCUUUUUUUUACCACACUACAGGACAUUACCUGUAGGCCCAGAAGACUACAGGCUGGUGUCCCUAGAGGGCCCAAUACAGUCAAUUCCAACCUCUAAGUCGGGGAAUGGAAUUCUCGGGUGCCAA: 0.196
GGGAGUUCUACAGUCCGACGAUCUGGGUACAUACUGGAGACAGCCAAGAGCUGAGUAUAUAAAGGAGAGGGAAUGUGCAGGAACAGAGGCGUCUUCCUGGGUUUGGCUCCCCGUUCCUCACUUUUCCCUUUUCUGGAAUUCUCGGGUGCCAA: 0.352
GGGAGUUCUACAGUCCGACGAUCCCCCCUCUCCUUCCUCCCCAGUGAGUUCACUUGCCAUUCGGGCACACUGGGUUAUUUCUCCGUCCUCAUUGUCAUCUAGAACUAGCUUUAGGGUAGUGCCAGACAAACAUUGGAAUUCUCGGGUGCCAA: 0.884
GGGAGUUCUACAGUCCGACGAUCGUGGAGAUUCCCCUAGGAGCGCUUGGCCAGCUGGGAAGGCAGCGCCCAGCUGCACUUGUUGUUGAUACAGCAUAAGUGAAUCAUGGGCAUUUCCCUGAGAGCAGUGGGAGUGGAAUUCUCGGGUGCCAA: 0.423
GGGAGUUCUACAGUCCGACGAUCACAAAGCCACAGUUUAACUGUCUGCAACAGUUGGUUUAUGUUAAUGAUAGACAAAUACCCAGUGUUUGUUACUUUUUCCAACUACCACUGUAAUGAUAAUCUUUCUCACGUGGAAUUCUCGGGUGCCAA: 0.226
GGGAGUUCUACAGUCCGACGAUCCCUCAUUCCAUCAGAGUAAUACACUUGCUUUAAUUCUUAAGCCUAAGUGAUACAAACAUGCCGAAUUACCUGUAAAGAAUGCAUUUAAAGCUAUUCUAAAUGGGUUUUUAUGGAAUUCUCGGGUGCCAA: 0.265
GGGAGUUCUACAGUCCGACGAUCGAGGAAAUAUUUUGUAUUGUAUAUUACAAUGAUCACUGGCUGAAAAUAUUGUUUUACAAUAGUUCUAUGGGGGUGAGUUUUUUGUUGUUAUUAAACAAACACUUUAGAUAUGGAAUUCUCGGGUGCCAA: 3.66
